Assay results of several laboratories.
Protocols differ between the studies behind these lines. Values after ≈ are worked out from the molar mass of the structure shown.
4'-phosphopantetheinyl transferase PptT: 4'-phosphopantetheinyl transferase PptT (Mycobacterium tuberculosis, UniProt O33336)
UniProt O33336, sequence (whole entry, looked up): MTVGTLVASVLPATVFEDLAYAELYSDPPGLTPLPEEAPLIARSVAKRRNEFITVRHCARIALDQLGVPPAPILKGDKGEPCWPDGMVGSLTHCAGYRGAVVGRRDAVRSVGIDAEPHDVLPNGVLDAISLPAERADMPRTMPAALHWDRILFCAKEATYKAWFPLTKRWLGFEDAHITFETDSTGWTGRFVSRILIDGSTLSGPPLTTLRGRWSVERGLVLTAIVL
UniProt Q99755, sequence (whole entry, looked up): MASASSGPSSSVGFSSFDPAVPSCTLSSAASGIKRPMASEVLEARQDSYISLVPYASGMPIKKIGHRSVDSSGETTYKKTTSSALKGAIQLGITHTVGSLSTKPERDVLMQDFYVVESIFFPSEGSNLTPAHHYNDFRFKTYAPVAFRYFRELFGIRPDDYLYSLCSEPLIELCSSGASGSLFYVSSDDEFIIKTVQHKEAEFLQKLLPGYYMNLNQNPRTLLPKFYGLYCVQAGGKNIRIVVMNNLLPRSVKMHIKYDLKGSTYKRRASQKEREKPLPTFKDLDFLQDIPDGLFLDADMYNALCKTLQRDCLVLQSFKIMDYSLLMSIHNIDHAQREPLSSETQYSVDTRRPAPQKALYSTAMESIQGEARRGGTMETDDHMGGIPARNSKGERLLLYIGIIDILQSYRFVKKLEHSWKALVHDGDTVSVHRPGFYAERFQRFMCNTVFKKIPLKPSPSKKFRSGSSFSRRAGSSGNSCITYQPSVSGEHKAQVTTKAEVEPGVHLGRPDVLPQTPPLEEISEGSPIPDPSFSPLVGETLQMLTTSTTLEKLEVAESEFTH
UniProt P42336, sequence (whole entry, unmodified, looked up): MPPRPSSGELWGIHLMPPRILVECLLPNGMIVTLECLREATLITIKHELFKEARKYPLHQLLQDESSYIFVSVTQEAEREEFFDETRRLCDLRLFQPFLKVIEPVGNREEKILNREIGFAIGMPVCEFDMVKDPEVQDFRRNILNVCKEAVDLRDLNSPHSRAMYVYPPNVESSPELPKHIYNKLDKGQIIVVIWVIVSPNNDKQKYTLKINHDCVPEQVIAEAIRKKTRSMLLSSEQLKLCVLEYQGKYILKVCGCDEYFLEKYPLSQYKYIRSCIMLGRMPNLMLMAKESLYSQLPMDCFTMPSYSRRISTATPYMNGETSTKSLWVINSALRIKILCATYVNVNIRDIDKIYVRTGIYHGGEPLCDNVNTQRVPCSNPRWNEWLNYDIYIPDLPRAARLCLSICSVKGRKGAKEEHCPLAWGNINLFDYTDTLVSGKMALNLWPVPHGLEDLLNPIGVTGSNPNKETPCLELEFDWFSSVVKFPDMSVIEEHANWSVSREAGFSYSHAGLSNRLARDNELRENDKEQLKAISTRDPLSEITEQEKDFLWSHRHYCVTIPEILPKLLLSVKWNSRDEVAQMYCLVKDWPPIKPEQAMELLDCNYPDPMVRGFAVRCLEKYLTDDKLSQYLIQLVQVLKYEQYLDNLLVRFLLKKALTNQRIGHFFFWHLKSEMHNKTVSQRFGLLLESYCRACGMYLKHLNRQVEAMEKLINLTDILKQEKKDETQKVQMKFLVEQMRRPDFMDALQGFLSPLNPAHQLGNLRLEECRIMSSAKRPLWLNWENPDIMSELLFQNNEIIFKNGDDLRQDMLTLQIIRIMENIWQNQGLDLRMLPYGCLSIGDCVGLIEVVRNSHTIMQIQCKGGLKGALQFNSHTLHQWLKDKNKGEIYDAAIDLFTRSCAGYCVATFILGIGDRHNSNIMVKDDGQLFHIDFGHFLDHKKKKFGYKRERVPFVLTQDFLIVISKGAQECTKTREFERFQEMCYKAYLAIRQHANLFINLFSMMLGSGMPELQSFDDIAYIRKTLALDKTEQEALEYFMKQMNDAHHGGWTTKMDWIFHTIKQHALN
UniProt Q13546, sequence (whole entry, looked up): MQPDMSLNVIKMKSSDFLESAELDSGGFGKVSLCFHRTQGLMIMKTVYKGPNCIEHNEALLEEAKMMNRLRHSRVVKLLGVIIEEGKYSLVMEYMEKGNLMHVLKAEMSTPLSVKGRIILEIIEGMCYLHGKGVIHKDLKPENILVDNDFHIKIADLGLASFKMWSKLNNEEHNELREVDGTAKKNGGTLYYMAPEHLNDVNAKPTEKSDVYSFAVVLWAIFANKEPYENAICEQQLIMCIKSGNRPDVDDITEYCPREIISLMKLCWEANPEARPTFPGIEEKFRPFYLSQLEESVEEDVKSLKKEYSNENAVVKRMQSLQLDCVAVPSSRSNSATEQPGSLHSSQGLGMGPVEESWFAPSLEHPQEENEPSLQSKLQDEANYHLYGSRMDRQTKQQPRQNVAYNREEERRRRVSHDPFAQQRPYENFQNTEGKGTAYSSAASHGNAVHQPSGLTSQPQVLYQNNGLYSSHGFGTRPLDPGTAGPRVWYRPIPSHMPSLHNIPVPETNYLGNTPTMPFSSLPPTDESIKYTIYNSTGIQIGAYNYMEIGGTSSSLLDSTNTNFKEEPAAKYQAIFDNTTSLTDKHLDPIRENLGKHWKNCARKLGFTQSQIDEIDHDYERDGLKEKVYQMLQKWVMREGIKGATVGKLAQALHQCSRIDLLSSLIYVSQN
UniProt Q59H18, sequence (whole entry, looked up): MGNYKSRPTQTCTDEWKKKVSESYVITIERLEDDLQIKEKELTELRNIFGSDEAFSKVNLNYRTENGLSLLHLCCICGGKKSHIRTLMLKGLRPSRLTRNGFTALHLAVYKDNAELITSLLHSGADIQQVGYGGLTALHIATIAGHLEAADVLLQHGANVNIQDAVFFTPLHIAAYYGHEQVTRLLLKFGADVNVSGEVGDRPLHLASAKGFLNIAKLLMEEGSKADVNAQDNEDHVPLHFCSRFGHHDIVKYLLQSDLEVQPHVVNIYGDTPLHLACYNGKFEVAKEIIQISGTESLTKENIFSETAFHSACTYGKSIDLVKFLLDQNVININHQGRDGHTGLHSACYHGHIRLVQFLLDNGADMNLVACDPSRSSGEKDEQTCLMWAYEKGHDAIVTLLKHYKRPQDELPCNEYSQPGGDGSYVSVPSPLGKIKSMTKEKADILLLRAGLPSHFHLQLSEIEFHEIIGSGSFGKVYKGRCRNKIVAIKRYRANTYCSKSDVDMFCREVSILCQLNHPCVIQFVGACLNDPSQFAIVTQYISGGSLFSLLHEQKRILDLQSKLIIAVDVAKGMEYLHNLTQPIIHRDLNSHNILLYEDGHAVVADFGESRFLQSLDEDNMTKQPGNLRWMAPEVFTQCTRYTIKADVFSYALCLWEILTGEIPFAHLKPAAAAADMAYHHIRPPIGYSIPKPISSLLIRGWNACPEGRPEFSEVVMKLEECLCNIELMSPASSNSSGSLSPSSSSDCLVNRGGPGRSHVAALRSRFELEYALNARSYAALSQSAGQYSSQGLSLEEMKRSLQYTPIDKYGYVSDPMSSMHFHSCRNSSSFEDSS

[2H]c1c([2H])c([C@]2([2H])CCCN2C(=O)C(C)(C)Oc2ccc3cn[nH]c3c2)c([2H])c([2H])c1C([2H])([2H])[2H] gave a remaining binding of 81% (Phosphatidylinositol 4-phosphate 5-kinase type-1 alpha (PIP5K1A, Homo sapiens, UniProt Q99755); binding, competition with immobilised ligand; 1 µM).
CC(C)[C@@H]1NC(=O)[C@@H](CCCNC(=N)N)NC(=O)[C@H]([C@@H](C)O)NC(=O)[C@@H](CCN)NC(=O)[C@H](Cc2ccccc2)NC(=O)[C@@H](Cc2ccccc2)NC1=O gave an IC50 of 9420 nM (Balamuthia mandrillaris; parasite growth, ATP luminescence).
For COC(=O)c1cc(-c2cccc(NC(=O)Nc3ccccc3F)c2)on1, the MIC was > 64 µg/mL (Mycobacteroides abscessus; microbial growth, broth dilution; ATCC19977; 48 h).
For C[N+]1=C2C=C(NCCc3ccc(O)cc3)C(=O)c3[nH]cc(c32)CC1, the IC50 was 3.4 nM (Babesia divergens; parasite growth, SYBR Green; 60 h, blood stage).
CC(C)C[C@@H]1NC(=O)CNC(=O)[C@@H](Cc2ccccc2)NC(=O)[C@H](CCCCN)NC(=O)[C@@H](CCCN)NC(=O)[C@@H](C(C)C)NC1=O gave an IC90 of > 16 µg/mL (Balamuthia mandrillaris; parasite growth, ATP luminescence).
With C#Cc1cccc(C(=O)NN=Cc2cc(C#C)ccc2O)c1 the MIC80 was 4 µg/mL (≈ 13.9 µM) (Aspergillus fumigatus; microbial growth; 48 h, pH 6.5).
For CC(C)[C@@H]1NC(=O)[C@@H](C(C)C)NC(=O)[C@H](C)NC(=O)[C@H](CO)NC(=O)[C@H](Cc2c[nH]c3ccccc23)NC(=O)[C@@H](Cc2ccc(O)cc2)NC(=O)[C@H](CCCN)NC(=O)[C@H](Cc2c[nH]c3ccccc23)NC1=O, the IC90 was > 16 µg/mL (Balamuthia mandrillaris; parasite growth, ATP luminescence).
COC(=O)c1cc(-c2ccc(OC)c(NC(=O)Nc3ccc(Cl)c(Cl)c3)c2)on1 has an MIC of > 64 µg/mL (Mycobacteroides abscessus; microbial growth, broth dilution; ATCC19977; 48 h).
O=C(NNc1ccc(Cl)c(Cl)c1)c1nnc(CC23CC4CC(CC(C4)C2)C3)o1 has an inhibition of 100% (Sclerotinia sclerotiorum; microbial growth; 50 µg/mL).
The MIC of COC(=O)c1cc(-c2cccc(NC(=O)Nc3ccc(OC)cc3)c2)on1 is reported as > 64 µg/mL (Acinetobacter baumannii; microbial growth, broth dilution; BAA1605).
For O=C(NCCc1ncc(C(F)(F)F)cc1Cl)c1ccccc1C(F)(F)F, the EC50 was > 50 µg/mL (Fusarium oxysporum; microbial growth).
For COC(=O)c1cc(-c2cccc(NC(=S)Nc3ccc(OC)cc3)c2)on1, the MIC was > 64 µg/mL (Mycobacteroides abscessus; microbial growth, broth dilution; ATCC19977; 48 h).
COC(=O)c1cc2[nH]c(=S)n(Cc3cccnc3)c(=O)c2cc1Cl gave an IC50 of 2900 nM (4'-phosphopantetheinyl transferase PptT; enzyme activity, inhibitor, FP).
O=C(NNc1cccc(Cl)c1)c1nnc(CC23CC4CC(CC(C4)C2)C3)o1 gave an inhibition of 56.3% (Fusarium oxysporum; microbial growth; 50 µg/mL).
COc1ccc(Nc2nn3c(-c4ccccc4)ccnc3c2C(=O)Nc2ccc(Cl)cc2)cc1 gave a viability of 92.2% (A549; cell growth or viability, MTT; 6.25 µg/mL, 48 h, serum-free).
The inhibition of O=C(NNc1ccccc1)c1nnc(CC23CC4CC(CC(C4)C2)C3)o1 is reported as 72.4% (Sclerotinia sclerotiorum; microbial growth; 50 µg/mL).
CC(C)[C@H]1NC(=O)[C@H](Cc2ccccc2)NC(=O)CNC(=O)[C@@H](Cc2ccccc2)NC(=O)[C@H](CCCCN)NC(=O)[C@@H](CCCN)NC1=O has an IC90 of > 16 µg/mL (Balamuthia mandrillaris; parasite growth, ATP luminescence).
Cc1nn(C)cc1-c1nc2c(N3CCN(Cc4ccc(Cl)cc4)CC3)c(Cl)cnc2[nH]1 gave a remaining binding of 100% (Phosphatidylinositol 4,5-bisphosphate 3-kinase catalytic subunit alpha isoform (PIK3CA, Homo sapiens, UniProt P42336, H1047L); binding, competition with immobilised ligand; 1 µM).
The remaining binding of Nc1ncc(-c2nc(N3CCOCC3)nc(N3CCOCC3)n2)c(C(F)F)n1 is reported as 100% (Serine/threonine-protein kinase TNNI3K (TNNI3K, Homo sapiens, UniProt Q59H18); binding, competition with immobilised ligand; 10 µM).
C[C@@H](O)[C@@H]1NC(=O)[C@H](Cc2ccccc2)NC(=O)[C@@H](Cc2ccccc2)NC(=O)[C@H]([C@@H](C)O)NC(=O)[C@@H](CCCN)NC(=O)[C@H](CCCNC(=N)N)NC(=O)[C@@H](CCCN)NC1=O gave an IC50 of > 16 µg/mL (Balamuthia mandrillaris; parasite growth, ATP luminescence).
With C#Cc1ccc(C=NNC(=O)c2ccc(COCC)cc2)c(O)c1 the MIC80 was 4 µg/mL (≈ 12.4 µM) (Aspergillus fumigatus; microbial growth; 48 h, pH 6.5).
Cc1ccc(-c2cc3c(c(OCC4CCCN(C)C4)c2)OCCN(C(=O)Cc2c(C)noc2C)C3)s1 (centres unmarked) gave an EC50 of ~2000 nM (Leishmania mexicana; parasite growth; intracellular, amastigote).
For CC(C)[C@H]1NC(=O)[C@H](Cc2ccccc2)NC(=O)[C@@H](Cc2c[nH]c3ccccc23)NC(=O)[C@H](CCCNC(=N)N)NC(=O)[C@@H](CCCN)NC(=O)[C@H](CC(N)=O)NC1=O, the IC50 was > 16 µg/mL (Balamuthia mandrillaris; parasite growth, ATP luminescence).
With COC(=O)c1cc(-c2cccc(NC(=O)Nc3ccccc3C)c2)on1 the MIC was > 64 µg/mL (Escherichia coli; microbial growth, broth dilution; ATCC25922).
With CC(C)[C@@H]1NC(=O)[C@@H](CCCN)NC(=O)[C@H]([C@@H](C)O)NC(=O)[C@@H](CCCN)NC(=O)[C@H](Cc2ccccc2)NC(=O)[C@@H](C)NC(=O)[C@@H](C(C)C)NC(=O)[C@@H](C)NC(=O)[C@H](Cc2c[nH]c3ccccc23)NC(=O)[C@@H](Cc2c[nH]c3ccccc23)NC1=O the IC50 was > 16 µg/mL (Balamuthia mandrillaris; parasite growth, ATP luminescence).
COc1ncccc1-c1cnn2ccc(N3CCN(C(=O)OC(C)C)CC3)nc12 has a remaining binding of 99% (Receptor-interacting serine/threonine-protein kinase 1 (RIPK1, Homo sapiens, UniProt Q13546); binding, competition with immobilised ligand; 1 µM).
O=C(Nc1cccc(-c2cc(C(=O)O)no2)c1)Nc1ccc(Cl)c(Cl)c1 has an MIC of > 64 µg/mL (Mycobacteroides abscessus; microbial growth, broth dilution; ATCC19977; 48 h).
O=c1c2cc(Cl)c(CO)cc2[nH]c(=S)n1Cc1cncc(-c2nnn[nH]2)c1 has an IC50 of 340 nM (4'-phosphopantetheinyl transferase PptT; enzyme activity, inhibitor, FP).
With C#Cc1ccc(C(=O)NN=Cc2cc(C#C)ccc2O)cc1 the MIC80 was > 32 µg/mL (Aspergillus fumigatus; microbial growth; 48 h, pH 6.5).
For Oc1c(Br)cc(Br)cc1-c1[nH]c(Br)c(Br)c1Br, the MIC was 16 µM (Klebsiella aerogenes; microbial growth; ATCC35029).
For O=C(NNc1cc(F)ccc1F)c1nnc(C23CC4CC(CC(C4)C2)C3)o1, the EC50 was 6.79 µg/mL (Fusarium oxysporum; microbial growth).
With C#Cc1ccc(C(=O)NN=Cc2ccc(C#C)cc2O)cc1 the MIC80 was > 16 µg/mL (Aspergillus fumigatus; microbial growth; 48 h, pH 6.5).
For CC(=O)N1CCN(c2ccc(OCC3COC(Cn4ccnc4)(c4ccc(Cl)cc4Cl)O3)cc2)CC1 (centres unmarked), the MFC was > 64 µM (Candida albicans; microbial killing, broth dilution; 48 h).
For COC(=O)c1cc(-c2cccc(NC(=O)NCc3ccccc3)c2)on1, the MIC was > 64 µg/mL (Mycobacteroides abscessus; microbial growth, broth dilution; ATCC19977; 48 h).
Oc1c(Cl)cc(Cl)cc1-c1[nH]c(Cl)c(Cl)c1Cl has an MIC of 10.7 µM (Klebsiella aerogenes; microbial growth; ATCC35029).
With N.N.[Cl][Pt][Cl] the IC50 was 600 nM (JVM-3; cell growth or viability, ATP luminescence; 72 h).
The IC90 of CC(C)[C@@H]1NC(=O)[C@@H](Cc2ccccc2)NC(=O)[C@H](CCCNC(=N)N)NC(=O)[C@@H]([C@H](C)O)NC(=O)[C@H](CC(N)=O)NC(=O)[C@@H](C(C)C)NC1=O is reported as > 16 µg/mL (Balamuthia mandrillaris; parasite growth, ATP luminescence).
The inhibition of Cc1ccc(NNC(=O)c2nnc(CC34CC5CC(CC(C5)C3)C4)o2)cc1 is reported as 76.9% (Fusarium oxysporum; microbial growth; 50 µg/mL).
For COC(=O)c1cc(-c2cccc(NC(=S)Nc3ccccc3)c2)on1, the MIC was > 64 µg/mL (Acinetobacter baumannii; microbial growth, broth dilution; BAA1605).
For N=C(N)c1ccc(OCCCCCOc2ccc(C(=N)N)cc2)cc1, the IC50 was 5 µg/mL (Leishmania donovani; parasite growth; amastigote).
O=c1ccc2nc3ccc(O)cc3oc-2c1 has an MIC of > 32 µg/mL (Acinetobacter baumannii; microbial growth; 24 h).
